# Experimental data collected from several papers.
# Lines come from different studies, so protocols differ. “And” joins repeats or separate records; there may be more than shown. ± gives the spread as reported.
# Organism: Mycobacterium tuberculosis
SMILES,assay,system,conditions,endpoint,result
O=C(C[N+]1=C(c2ccc(F)c(F)c2)c2cccn2CC1)c1ccc(F)cc1,,K204,added: kanamycin,kanamycin MIC,≥ 10 mg/L
Cc1ccccc1Oc1ccc(Cn2cc(C3CC3)nn2)cc1O,Alamar Blue,,"6 days plus 24 h, 37 °C",MIC,< 1 mg/L and 0.78 mg/L
Nc1nc(N)c2c(Cl)c(CNc3ccc(C(=O)O)cc3)ccc2n1,bacterial growth,DHFR-overexpressing,,MIC90,1 µM
O=c1c2cc(CO)ccc2[nH]c(=S)n1Cc1cccnc1,,PptT conditional knock-down,,MIC90,92.2 µM
CO[C@H]1[C@H](O[C@H]([C@H]2O[C@@H](n3ccc(=O)[nH]c3=O)[C@H](O)[C@@H]2O)[C@H](NCCCNC(=O)[C@@H](NC(=O)[C@@H](NC(=O)N[C@H](C(=O)O)C(C)C)[C@@H]2CCNC(=N)N2)[C@@H](OC(=O)CCCCCCCCCCCCN(O)C(=N)N)C(C)C)C(N)=O)O[C@H](CN)[C@H]1O,alamar blue,H37Rv,,MIC90,0.04 ± 0.005 mg/L
N#Cc1ccccc1Oc1ccc(Cn2cc(C3CCCCC3)nn2)cc1O,Alamar Blue,,"6 days plus 24 h, 37 °C",MIC,0.625 mg/L
"CC(O)c1cc2[nH]c(=S)n(Cc3cccnc3)c(=O)c2cc1Cl (single isomer, unassigned)",,H37Rv,,MIC90,> 100 µM
O=C(C[N+]1=C(c2ccc(F)c(F)c2)c2cccn2CC1)c1ccccc1,,K204,added: kanamycin,kanamycin MIC,≥ 10 mg/L
O=c1c2ccccc2[nH]c(=S)n1Cc1cccnc1,intracellular growth,"THP-1 macrophages, H37Rv-GFP",,maximum growth inhibition,~72%
Cc1ccc(C(=O)C[N+]2=C(c3ccc(F)c(F)c3)c3cccn3CC2)cc1,,K204,added: kanamycin,kanamycin MIC,≥ 10 mg/L
CC(=O)Oc1ccc2nc3ccc(=O)cc-3oc2c1,,mc2 6206 bedaquiline-resistant MmpL5 regulator mutant,7 days,MIC90,> 256 µM
